# Experimental data from different studies.
# Lines come from different studies, so protocols differ. ± gives the spread as reported.
SMILES,cell line,assay,test system,setting,IC50
CN1CCC(N[C@@H]2CCc3[nH]c4c(C(N)=O)ccc(-c5ccccc5Cl)c4c3C2)CC1,colorectal cancer organoid sample D,"cell growth, CellTiter-Glo",,6 days,0.0084 µM
[Cl][Au].[Se]=c1n(C23CC4CC(CC(C4)C2)C3)ccn1C12CC3CC(CC(C3)C1)C2,H157 lung carcinoma cells,"cell viability, MTT",,72 h,1.7 ± 0.2 µM
Cc1cc(O)cc2c1O[C@](C)(CCC[C@H](C)CCC[C@H](C)CCCC(C)C)CC2,SK-MEL-24,"cell growth or viability, MTT",,24 h,5.57 µM
COc1ccc(NS(=O)(=O)c2cccc(/C=C/C(=O)NO)c2)cc1,MOPC-315,cell growth,,24 h,0.09 ± 0.016 µM
N#C/C(=C\c1cn(-c2ccccc2)nc1-c1ccc(Cl)cc1Cl)c1nc2ccccc2[nH]1,ASPC1,"cell growth or viability, ATP luminescence",,72 h,> 100 µM
COc1cc(N(C)CCN(C)C)c(NC(=O)/C=C/c2ccc(C(F)(F)F)cc2)cc1Nc1nccc(-c2cn(C)c3ccccc23)n1,NCI-H1975,"cell growth or viability, MTT",,72 h,0.716 µM
N=C(N/N=C/c1ccc(F)cc1)N/N=C/c1ccc(F)cc1,hTERT-HPNE,"cell growth, crystal violet",,72 h,50 ± 5.4 µM
CCCCCCCCn1c2ccccc2c2cc(-c3cn(-c4ccc(-c5cc(-c6ccccn6)nc(-c6ccccn6)c5)cc4)nn3)ccc21,NHDF normal human fibroblasts,"cytotoxicity, MTS",,72 h,> 25 µM
CC(=O)Nc1ccc(OC(=O)CCC(=O)[O][Pt-2]23([O]C(=O)CCC(=O)Oc4ccc(NC(C)=O)cc4)([NH2+][C@@H]4CCCC[C@H]4[NH2+]2)[O]C(=O)C(=O)[O]3)cc1,4T1,"cell growth or viability, MTT",,48 h,1.06 µM
Cn1cnc(Cn2ccc3ccc(CNCc4[nH]c5ccccc5c4C4NC(=O)c5ccc(O)cc54)cc32)c1 (stereo not shown),SNU-1 (KRAS G12D),"cell viability, CellTiter-Glo",,72 h,> 30 µM
CN1CCN(c2ccc(Nc3ncc(Cl)c(Nc4ccccc4P(C)(C)=O)n3)cc2Br)CC1,PC9-OR EGFR 19del/T790M/C797S,"cell growth, inhibitor, SRB",,72 h,0.18 µM
COc1cc(OC)cc(C2=C3C(C)=C(I)C(C)=[N+]3[B-](F)(F)n3c(/C=C/c4c[nH]c5ccccc45)c(I)c(C)c32)c1,HEp-2,"phototoxicity, CellTiter-Blue",,together with: light 1.5 J/cm^2,2 µM
OC[C@H]1[C@@H](O)[C@@H](O)CN1Cc1ccc(Br)cc1,K562-Tax,"cell growth or viability, MTS",,72 h,125 µM
C=CC(=O)Nc1ccc(-c2c(-c3ccc(OC)cc3)c3c(N)ncnc3n2C)cc1,JMSU-1,"cell growth or viability, ATP luminescence",,96 h,0.081 µM
CC(C)(C)c1cc(=O)n2ncc(-c3ccc(F)cc3)c2[nH]1,HCT-116 3D tumour organoids,cytotoxicity,0.4% DMSO,"72 h, 2% Matrigel",5.86 µM
C=CC(=O)N1C[C@H](C)N(c2nc(OC[C@@]34CCCN3C[C@H](F)C4)nc3c(F)c(-c4ccc(F)c5sc(N)c(C#N)c45)c(C(F)(F)F)cc23)C[C@H]1C,BRAF V600E-driven mouse embryonic fibroblasts,measured: pERK,,,> 10 µM
CCN1CCC2(CC1)C/C(=N\NC(=O)Nc1ccc(OC)cc1)c1ccccc1O2,"MCF7, HCT-116, PC-3, A549","cell growth, MTT",,range over cell lines,5.47 to 39 µM
C#CCOc1ccc(-c2n(CC(=O)O[C@@H]3C[C@H](C)CC[C@H]3C(C)C)c3ccccc3[n+]2C)cc1N=[N+]=[N-],MEF,cell growth or viability,,,> 5 µM
CCN(CC)C1=[S+][Au-2]2([S]1)[c]1ccccc1-c1cccc[n+]12.F[P-](F)(F)(F)(F)F (stereo not shown),UWB1289,"cell growth or viability, MTT",,72 h,2.19 µM
[Cl][Pt-]1([Cl])[S]C(Nc2ccccc2)=N[N+]1=Cc1ccc(-c2ccccc2)s1,HEL human lung fibroblasts,cell proliferation,,,52.7 µM
c1ccc(-c2cc(-c3ccc(-n4cc(-c5ccc(-c6cccs6)s5)nn4)cc3)cc(-c3ccccn3)n2)nc1,NHDF normal human fibroblasts,"cytotoxicity, MTS",,72 h,> 25 µM
CCN1CCC2(CC1)C/C(=N\NC(=O)Nc1ccccc1)c1ccccc1O2,"MCF7, HCT-116, PC-3, A549","cell growth, MTT",,range over cell lines,1.15 to 9.09 µM
C/C1=C/C[C@H]2[C@@H]3[C@@H]([C@@]4(C)CO4)CC[C@@]3(C)CC[C@]2(C)C[C@H]2[C@@H](C)CC[C@@H]12,CT26,"cell growth or viability, MTT",,72 h,19 µM
Cc1cc2nc(-c3ccc4c(c3)CN([C@H]3CCC(=O)NC3=O)C4=O)ccn2n1,MOLM-13,"cell growth, CellTiter luminescence",,72 h,> 0.1 µM
N=C(N/N=C/c1ccc[nH]1)N/N=C/c1ccc[nH]1,hTERT-HPNE,"cell growth, crystal violet",,72 h,74.3 ± 7.4 µM
C=CC(=O)Nc1cc(Nc2nccc(-c3c(-c4ccc(C(F)(F)F)cc4)n(C)c4ccccc34)n2)c(OC)cc1N(C)CCN(C)C,NCI-H1975,"cell growth or viability, MTT",,72 h,0.0969 µM
Cc1ccc(F)cc1NS(=O)(=O)c1cccc(/C=C/C(=O)NO)c1,MOPC-315,cell growth,,24 h,0.38 ± 0.073 µM
CC(C)CCc1c(O)cc2oc3cc(O)c(O)c(CCC(C)C)c3c(=O)c2c1O,BEAS-2B,cell growth or viability,,,6.48 µM
[Ru+2].c1ccc(-c2cccc(-c3ccccn3)n2)nc1.c1cnc(-c2cnccn2)cn1.c1cnccn1,HL-60,cell viability,,together with: light 22 J/cm^2,24.2 ± 2.1 µM
CSc1nc(Nc2ccc(/C(C)=N/NC(=O)c3cccc(Cl)c3)cc2)c(C#N)c(-c2ccccc2)n1,HCT-116 and MCF7,"cell growth, MTT",,range over compound group,9.25 to 15.3 µM
CC(=O)O[C@@H]1C[C@H]2C(C)(C)[C@H](O)CC[C@]2(C)[C@H]2CC[C@]34C[C@]3(CC[C@H]4[C@@H](C)C[C@@H](O)[C@H](O)C(C)(C)O)[C@@]21C,SCM-1,"cytotoxicity, MTT",,,20 ± 4.9 µM
Cc1ccc(Nc2ccn3ncc(-c4ccc5c(c4)CN([C@H]4CCC(=O)NC4=O)C5=O)c3n2)cc1Cl,MOLM-13,"cell growth, CellTiter luminescence",,72 h,> 0.1 µM
O=C(OCc1cccc(O)c1O)c1ccc(O)c(CO)c1,mouse PBMC,"oxidative burst, lucigenin chemiluminescence",,together with: fMLP 10 µM,1.52 µM
COCCOCCOCCOc1ccc(/C=C/C2=[N+]3C(=C(c4cc(OC)cc(OC)c4)c4c(C)c(I)c(/C=C/c5ccc(OCCOCCOCCOC)cc5)n4[B-]3(F)F)C(C)=C2I)cc1,HEp-2,"cell growth or viability, resazurin",,"24 h, dark",> 400 µM
CSc1nc(Nc2ccc(/C(C)=N/NC(=O)c3ccccc3Cl)cc2)c(C#N)c(-c2ccccc2)n1,HCT-116 and MCF7,"cell growth, MTT",,range over compound group,9.25 to 15.3 µM
C=CC(=O)Nc1ccc(F)c(-c2ncnc3[nH]cc(C(=O)OCC)c23)c1,mouse CD4 T-cell blasts,CD25 upregulation,,"24 h, together with: IL-2",0.0031 µM
O=C(Nc1ccccc1)c1ccccc1-n1c(=O)[nH]c2ccc(F)cc2c1=O,B16-F10,"cell growth or viability, MTT",,24 h,32.4 µM
COC(=O)[C@H]1[C@H]2C[C@H]3O[C@@]4(CCN3C[C@H]2C[C@@H](OC(=O)c2cc(OC)c(OC)c(OC)c2)[C@@H]1OC)C(=O)Nc1cc(OC)ccc14,NALM-6,"cell growth or viability, trypan blue",,72 h,24.4 µM
[Cl][Pd-]1([Cl])[S]C(Nc2ccccc2)=N[N+]1=Cc1ccc(-c2ccccc2)s1,HEL human lung fibroblasts,cell proliferation,,,100 µM
C1=[N+]2CCCC[N+]3=Cc4ccc5[n]4[Au-]23[n]2c1ccc2-c1nc2ccccc2nc1-5.F[P-](F)(F)(F)(F)F,NCI60 leukemia cell lines,,,mean of cell lines,5 µM
N=C(N/N=C/c1ccc2ccccc2c1)N/N=C/c1ccc2ccccc2c1,hTERT-HPNE,"cell growth, crystal violet",,72 h,276 ± 55.2 µM
COc1cc(OC)cc(C2=C3C(C)=C(I)C(C)=[N+]3[B-](F)(F)n3c(/C=C/c4c[nH]c5ccc([N+](=O)[O-])cc45)c(I)c(C)c32)c1,HEp-2,"phototoxicity, CellTiter-Blue",,together with: light 1.5 J/cm^2,5 µM
CC(C)=CCC1=C(O)c2c(occ(-c3ccc(O)cc3)c2=O)C(CC=C(C)C)(CC=C(C)C)C1=O,KKU100,"cell growth or viability, MTT",,24 h,22.4 µM
CC(C)=CCc1c(-c2cc(O)c(O)cc2O)oc2c(CC=C(C)C)c(O)cc(O)c2c1=O,T.Tn,"cell growth, MTT",,72 h,92 µM
CC[C@H](C)[C@H](NC(=O)[C@@H]1CCCN1C(=O)[C@@H](NC(=O)[C@@H]1CCCN1C(=O)[C@H](CCCCN)NC(=O)[C@H](CCCCN)NC(=O)[C@H](CCCCN)NC(=O)[C@@H]1CCCN1C(=O)[C@@H](N)CCSC)[C@@H](C)O)C(=O)N[C@@H](CCC(N)=O)C(=O)N[C@@H](CC(C)C)C(=O)N[C@@H](CC(N)=O)C(=O)N1CCC[C@H]1C(=O)N[C@@H](CCCCNC(=O)CNC(=O)[C@H](CCCCN)NC(=O)[C@H](CCCNC(=N)N)NC(=O)[C@H](Cc1ccccc1)NC(=O)[C@H](CCCNC(=N)N)NC(=O)[C@H](CCCNC(=N)N)NC(=O)[C@H](CCCNC(=N)N)NC(=O)[C@H](CO)NC(=O)[C@H](Cc1ccc(O)cc1)NC(=O)[C@H](CO)NC(=O)[C@H](CC(C)C)NC(=O)[C@H](CCCNC(=N)N)NC(=O)[C@@H](N)CCCNC(=N)N)C(N)=O,HPASMC,"PDGF-induced ERK phosphorylation, inhibitor, Western blot, measured: phospho-ERK1/2",,"30 min preincubation, serum-free medium, together with: PDGF 1 ng/mL, 10 min",18.2 µM
Cc1ccc(C(C)C)cc1.Oc1ccccc1C=NNC1=Nc2ccccc2-c2[nH]c3ccc(Br)cc3c2C1.[Cl-].[Cl][Ru+],NCI-N87,"cytotoxicity, MTT",,96 h,1.1 ± 0.1 µM
Cc1cc(/C=C/C#N)cc(C)c1Oc1cc(Nc2ccc(C#N)cn2)nc2cnccc12,S102,,,48 h,66.7 ± 10.2 µM
COc1ccc(/N=N/C(=S)N2CCN(C)CC2)cc1,HT-1080,"cell growth or viability, resazurin",,48 h,> 50 µM
CC(=O)Oc1ccccc1/C=C/C(=O)Nc1nc(=O)n([C@@H]2O[C@H](C)[C@@H](OC(C)=O)[C@H]2OC(C)=O)cc1F,ASPC1,"cell growth or viability, MTT",,72 h,69.3 µM
COC(=O)[C@H]1[C@H]2C[C@H]3O[C@@]4(CCN3C[C@H]2C[C@@H](OC(=O)c2cc(OC)c(OC)c(OC)c2)[C@@H]1OC)C(=O)Nc1cc(OC)c(-c2ccccc2)cc14,NALM-6,"cell growth or viability, trypan blue",,72 h,4.03 µM
COc1c(O)cc2oc3cc(O)c(CC=C(C)C)c(O)c3c(=O)c2c1CC=C(C)C,BEAS-2B,cell growth or viability,,,15.8 µM
COc1cc(-c2cc(=O)c3c(O)cc(OC4OC(COC5OC(C)C(O)C(O)C5O)C(O)C(O)C4O)cc3o2)ccc1O (stereo not shown),"MDA-MB-231/BCRP BCRP-transfected, multidrug-resistant","cytotoxicity, resazurin reduction",,72 h,> 100 µM
Cc1c(-c2cccc(C3=NCCN3)c2)oc(-c2cccc(C3=NCCN3)c2)c1C,SV40-transformed WI-38 ALT fibroblasts,"cell growth, SRB",,96 h,1 µM
C#CCOc1ccc(C(=O)c2ccc(NC(=O)C(=O)NCCc3ccc(OC)cc3)cc2)cc1,NCI-H2073,cell viability,,,~0.69 µM
CC1=C2[O][Ru-]([Cl])[O+]=C2C=CN1CCCCCCN1C=CC2=[O+][Ru-]([Cl])[O]C2=C1C.Cc1ccc(C(C)C)cc1.Cc1ccc(C(C)C)cc1,A-427,"cell growth or viability, crystal violet",,96 h,13 µM
